Measured values collected from several papers.
Each line is one published result; not all experiments were run side by side. ± marks the error that the study gave.

`CCCCCCCC(=O)OC[C@H](NC(=O)[C@H](CO)NC(=O)CN)C(=O)N[C@@H](Cc1ccccc1)C(=O)N[C@@H](CC(C)C)C(=O)N[C@@H](CO)C(=O)N1CCC[C@H]1C(=O)N[C@@H](CCC(=O)O)C(=O)N[C@@H](Cc1cnc[nH]1)C(=O)N[C@@H](CCC(N)=O)C(=O)N[C@@H](CCCNC(=N)N)C(=O)N[C@H](C(=O)N[C@@H](CCC(N)=O)C(=O)N[C@@H](CCC(N)=O)C(=O)N[C@@H](CCCNC(=N)N)C(=O)N[C@@H](CCCCN)C(=O)N[C@@H](CCC(=O)O)C(=O)N[C@@H](CO)C(=O)N[C@@H](CCCCN)C(=O)N[C@@H](CCCCN)C(=O)N1CCC[C@H]1C(=O)N1CCC[C@H]1C(=O)N[C@@H](C)C(=O)N[C@@H](CCCCN)C(=O)N[C@@H](CC(C)C)C(=O)N[C@@H](CCC(N)=O)C(=O)N1CCC[C@H]1C(=O)N[C@@H](CCCNC(=N)N)C(=O)O)C(C)C` has a clearance of 7.66 ± 2.36 mL/min/kg (ELISA; healthy humans, both sexes, plasma; intravenous infusion, 1 µg/kg/h, 65 min).
For `CSCC[C@@H]1NC(=O)[C@@H]2CSSC[C@H](NC(=O)[C@H](CO)NC(=O)[C@H](C)N)C(=O)N[C@@H](CCCNC(=N)N)C(=O)N[C@@H]([C@@H](C)O)C(=O)N3CCC[C@H]3C(=O)N[C@@H](CCCCN)C(=O)N[C@@H](CC(=O)O)C(=O)N[C@H]3CSSC[C@H](NC(=O)[C@H](CCCCN)NC(=O)[C@H](CCCNC(=N)N)NC(=O)[C@H](CC(N)=O)NC1=O)C(=O)N[C@@H](CCCCN)C(=O)N[C@H]1CSSC[C@H](NC(=O)[C@@H]4CCCN4C(=O)[C@H](CC(=O)O)NC(=O)[C@H](C)NC3=O)C(=O)N[C@@H](C)C(=O)N[C@@H](CCCCN)C(=O)N[C@@H](CCC(=O)O)C(=O)N[C@@H]([C@@H](C)O)C(=O)NCC(=O)N[C@@H](CSSC[C@@H](C(N)=O)NC(=O)[C@H](CCCNC(=N)N)NC(=O)[C@H](CC(N)=O)NC1=O)C(=O)N1CCC[C@H]1C(=O)N[C@@H](Cc1ccc(O)cc1)C(=O)NCC(=O)N[C@@H](CCCCN)C(=O)N2`, the direct bilirubin was 0.002 mg/dL (DA rat, pristane-induced arthritis, serum; subcutaneous, 0.1 mg/kg every other day, end of 21-day trial).
`Cc1ccc(OCC(=O)N(Cc2cccs2)c2ccn[nH]2)cc1` — result for “total corpora lutea count”: 433 (Crl:CD(SD) rat, bred female; oral, 125 mg/kg/day, total per group, developmental toxicity).
Under “serum indirect bilirubin”, `CN(C)C(CNC(=O)Nc1cc(C(F)(F)F)ccc1N1CCOCC1)c1ccncc1` (centres unmarked) is recorded as 0.2 mg/dL (mouse, serum; intraperitoneal, 120 mg/kg single dose).
The retention time of `CC[C@H](C)[C@H](NC(=O)[C@H](CCCCN)NC(=O)[C@H](Cc1ccccc1)NC(=O)[C@H]1CCC[C@@H]1NC(=O)[C@@H](N)CCCCN)C(=O)N[C@@H](C)CC(=O)N[C@@H](CCCCN)C(=O)N[C@@H](CCCCN)C(=O)N[C@H]1CCC[C@@H]1C(=O)N[C@H](C(=O)N[C@@H](CCCCN)C(=O)N[C@H](C(=O)N[C@H](CC(N)=O)Cc1ccccc1)[C@@H](C)O)C(C)C` is reported as 14.02 ± 0.04 min (RP-HPLC C18; hydrophobicity).
`CC(C)[C@H](NC(=O)CNC(=O)[C@H](CCC(N)=O)NC(=O)[C@H](C)N)C(=O)O`: “subjects given concomitant medication” 0% (human; 1 mg/kg single dose).
The concentration of `CC[C@H](C)[C@H](NC(=O)[C@H](CCCCN)NC(=O)[C@@H](NC(=O)[C@H](CCC(N)=O)NC(=O)[C@H](CCCNC(=N)N)NC(=O)[C@@H](N)CC(=O)O)[C@@H](C)CC)C(=O)N[C@@H](Cc1c[nH]c2ccccc12)C(=O)N[C@@H](Cc1ccccc1)C(=O)N[C@@H](CCC(N)=O)C(=O)N[C@@H](CC(N)=O)C(=O)N[C@@H](CCCNC(=N)N)C(=O)N[C@@H](CCCNC(=N)N)C(=O)N[C@@H](CCSC)C(=O)N[C@@H](CCCCN)C(=O)N[C@@H](Cc1c[nH]c2ccccc12)C(=O)N[C@@H](CCCCN)C(=O)N[C@@H](CCCCN)C(=O)N[C@@H](CC(C)C)C(=O)N[C@@H](CC(=O)O)C(=O)N[C@@H](Cc1c[nH]c2ccccc12)C(=O)N[C@@H](CO)C(=O)N[C@@H](Cc1c[nH]c2ccccc12)C(=O)N[C@@H](CC(C)C)C(=O)O` is reported as 0.312 µg/mg tissue (HPLC; 5XFAD transgenic mice, hippocampus; intranasal, 0.1 mg/kg every 2 days, 30 d).
With `C[C@H](CCC(=O)N[C@@H](CCCCNC(=O)C(F)(F)F)C(=O)O)[C@H]1CC[C@H]2[C@@H]3[C@H](O)C[C@@H]4C[C@H](O)CC[C@]4(C)[C@H]3C[C@H](O)[C@]12C` the concentration was 5200 µM (C57BL/6J mice, gallbladder; oral, 50 mg/kg, 5 h).
With `CC1(C)C(=O)N(c2ccc(C#N)c(C(F)(F)F)c2)C(=S)N1c1ccc(C(=O)O)c(F)c1` the Tmax (median) was 48 h (human, male, plasma; oral, 160 mg, single dose, after high-fat meal).
`Cc1cc(C)c(-c2cc(C)c(OP(=O)([O-])OCCC[C@H](C(=O)[O-])N3CCN(CC(=O)[O-])CCN(CC(=O)[O-])CCN(CC(=O)[O-])CC3)cc2C)c(C)c1.[Gd+3]` — result for “activation enthalpy water exchange”: 13.4 kcal/mol (O-17 NMR; PBS; concentration not given, no protein).
The AUC(0-last) of `CC(C)C[C@H](NC(=O)[C@H](CCCCN)NC(=O)[C@H](CCC(=O)O)NC(=O)[C@H](C)NC(=O)[C@@H](NC(=O)[C@H](CCCCN)NC(=O)[C@H](CC(=O)O)NC(=O)[C@H](Cc1ccc(O)cc1)NC(=O)[C@H](Cc1ccccc1)NC(=O)[C@H](C)NC(=O)[C@H](CCCCN)NC(=O)[C@H](CC(C)C)NC(=O)[C@H](Cc1c[nH]c2ccccc12)NC(=O)[C@@H](N)CC(=O)O)C(C)C)C(=O)N[C@@H](CCCCN)C(=O)N[C@@H](CCC(=O)O)C(=O)N[C@@H](C)C(=O)N[C@@H](Cc1ccccc1)C(=O)N1CCC[C@H]1C(=O)N[C@@H](CC(=O)O)C(=O)N[C@@H](Cc1c[nH]c2ccccc12)C(=O)N[C@@H](C)C(=O)N[C@@H](CCCCN)C(=O)N[C@@H](C)C(=O)N[C@@H](C)C(=O)N[C@@H](Cc1ccc(O)cc1)C(=O)N[C@@H](CC(=O)O)C(=O)N[C@@H](CCCCN)C(=O)N[C@@H](C)C(=O)N[C@@H](C)C(=O)N[C@@H](CCC(=O)O)C(=O)N[C@@H](CCCCN)C(=O)N[C@@H](C)C(=O)N[C@@H](CCCCN)C(=O)N[C@@H](CCC(=O)O)C(=O)N[C@@H](C)C(=O)N[C@@H](C)C(=O)O` is reported as 7470 µg·h/mL (cynomolgus monkey male, plasma; intravenous infusion, 75 mg/kg, day 1, 30 min infusion).
The Vz/F of `CCCCCCCC/C=C\CCCCCCCCOP(O)(O)=S.N` is reported as 1.34 L/kg (mouse, male, nonirradiated; subcutaneous, single dose).
Under “tumour to blood ratio”, `O=C(O)CCC(NP(=O)(O)OCCC[C@@H](NC(=O)CCC(NC(=O)CCCCCNC(=O)c1ccc([18F])cc1)C(=O)O)C(=O)O)C(=O)O` (some centres unmarked) is recorded as 20 (radioactivity; mouse, CWR22Rv1 xenograft; 1 h; reference: tumour over blood).
With `CCCCC[C@@H]1OC(=O)[C@@H](C)N(C)C(=O)[C@H](CCCCC)OC(=O)[C@@H](C)N(C)C(=O)[C@H](CCCCC)OC(=O)[C@@H](C)N(C)C(=O)[C@H](CCCCC)OC(=O)[C@@H](C)N(C)C1=O` the Papp B→A was 1.5 ×10⁻⁶ cm/s (Caco-2; 10 µM, 2 h, pH 7.4).
The tissue uptake of `CN[C@](C)(C[18F])C(=O)O` is reported as 0.3 ± 0.03 %ID/g (SCID mouse DU-145 xenograft, brain; 15 min, post injection).
`CCN(CCCCOc1ccc(CCC(=O)N2CCC(Cc3ccccc3)CC2)cc1OC)Cc1ccccc1` — result for “total number of metabolites”: 22 (Sprague-Dawley rat, both sexes, faeces, urine and plasma; oral, 25 mg/kg).
`CC(C)[C@@H]1NC(=O)[C@H](Cc2ccccc2)NC(=O)[C@H](Cc2ccc(O)cc2)NC(=O)CCSSC[C@@H](C(=O)N2CCC[C@H]2C(=O)N[C@H](CCCNC(=N)N)C(=O)NCC(N)=O)NC(=O)[C@H](CCC(N)=O)NC1=O` has a glucose of 218 ± 13.9 mg/dL (Wistar rat, blood; intravenous, 1 µg/kg single dose, 72 h).
The permeability (Pe) of `O=c1oc2c(CNCCc3cccc(F)c3)c(O)ccc2c2c1CCC2` is reported as 5 ± 0.3 ×10⁻⁶ cm/s (porcine brain lipid; 100 µg/mL, 18 h, pH 7.4).
`COC1CC(OC2CCC3(C)C(CCC45OC46CCC(C(C)=O)C6(C)C(OC(C)=O)C(OC(=O)c4ccccc4)C35)C2)OC(C)C1OC1OC(C)C(O)C(OC)C1O` (centres unmarked) has a Papp B→A of 10.7 ×10⁻⁶ cm/s (Caco-2; 10 µM).
With `CC(C)[C@H]1NC(=O)C[C@H]2/C=C/CCSSC[C@@H](NC1=O)C(=O)N[C@H](Cc1cccc3ccccc13)C(=O)NCC(=O)O2` the AUC was 0.0104 µg·h/mL (nude mouse, blood; intravenous, 4 mg/kg).
The brain uptake of `COc1cc2ccnc(Cc3ccc(O[11CH3])c(OC)c3)c2cc1OC` is reported as 0.038 %ID/g (Sprague-Dawley rat, hippocampus; i.v., 30 min).
For `CCN(Cc1ccccc1)C(=O)CCc1nc(CN2CCN(C(=O)Cc3ccc(OC)c(OC)c3)CC2)no1`, the concentration was 1030 ng/mL (rat, plasma; intravenous, 1 mg/kg, 5 min).
With `CC(=O)[CH](C(C)=O)[Pt-2]1([S+](C)C)[O]C(C)=CC(C)=[O+]1` (centres unmarked) the urine volume was 0.85 ± 0.1 mL/24 h (nude BALB/c mice; iv, dose not given).
With `CCCC[C@H](NC(=O)[C@H](Cc1c[nH]c2ccccc12)NC(=O)CNC(=O)[C@H](Cc1ccc(O)cc1)NC(=O)[C@H](C)NC(=O)[C@H](CCC(=O)O)NC(=O)[C@H](Cc1c[nH]cn1)NC(=O)[C@H](Cc1c[nH]cn1)NC(=O)CN1CCN(CC(=O)O)CCN(CC(=O)O)CCN(CC(=O)O)CC1)C(=O)N[C@@H](CC(=O)O)C(=O)N[C@@H](Cc1ccccc1)C(N)=O` the tumour-to-kidney ratio was 0.31 (MF1 nude mouse, male, CA20948 xenograft; intravenous, 0.2 µg, 4 h, 111In-labelled; reference: tumour over kidney).
The bioavailability of `Cc1cc(-c2ccc3ccccc3c2)nnc1NCCN1CCN(C)CC1` is reported as 38.8% (male rat, plasma; oral).
`COC(=O)C[C@](O)(CCCC(C)(C)OC(C)=O)C(=O)O[C@@H]1C(OC)=C[C@]23CCCN2CCc2cc4c(cc2[C@H]13)OCO4` gave a tissue concentration of 3.37 ng/mL (CD1 mouse, brain; subcutaneous, 1 mg/kg, 2 h).
`CC[C@H](C)C(=O)N1CCC(NC(=O)Nc2ccc(OC(F)(F)F)c(F)c2)CC1` gave an AUC(0-inf) of 6.96 µg·h/mL (human, plasma; oral, 16 mg, single dose, healthy volunteers).
The Tmax of `CC(=CCC(O)C(C)=Cc1csc(C)n1)CC=CC(C)C(O)C(C)C(=O)C(C)(C)C(O)CC(=O)O` (centres unmarked) is reported as 3.55 ± 0.64 h (human, plasma; intravenous infusion, 48 mg/m2 KOS-1584, 3 h infusion, cycle 1).
For `CC[C@@H](C)[C@@H](NC(=O)[C@@H](C)NC(=O)[C@@H](CCCCN)NC(=O)[C@@H](CC(C)C)NC(=O)[C@@H](C)NC(=O)[C@H](NC(=O)[C@@H](Cc1c[nH]cn1)NC(=O)[C@@H](CC(C)C)NC(=O)[C@H](NC(=O)[C@H](NC(=O)[C@@H](CCCCN)NC(=O)[C@@H](CCCCN)NC(=O)[C@@H](C)NC(=O)[C@@H](CO)NC(=O)[C@@H](CCCCN)NC(=O)[C@@H](Cc1ccccc1)NC(=O)[C@H](NC(=O)[C@@H](CCCCN)NC(=O)[C@@H](CC(C)C)NC(=O)[C@@H](Cc1ccccc1)NC(=O)[C@@H](CO)NC(=O)[C@@H](CCCCN)NC(=O)[C@@H](Cc1c[nH]c2ccccc12)NC(=O)[C@@H](CCCCN)NC(C)=O)[C@H](C)O)[C@H](C)O)C(C)C)[C@H](C)O)C(=O)N[C@H](CO)C(=O)N[C@H](CO)C(N)=O`, the helical content was 88% (circular dichroism; 50% trifluoroethanol buffer; 5 °C; reference: reference peptide in TFE).
